# Results gathered from unrelated publications.
# Every numbered part comes from another study and shows a few of its results, in no order. Changes are numbered by the printed parent chain.

# Sample 1
# Target: CCNB3, cyclin fold, Cln2 fusion (human)
# Technique: yeast growth competition, sequencing
# Medium: yeast
# Notes: weak parent motif
# Relative to: not given
# Reading: higher = stronger binding
# Parent: USP37 docking peptide (human); PSAKRSLGFLPQP; partner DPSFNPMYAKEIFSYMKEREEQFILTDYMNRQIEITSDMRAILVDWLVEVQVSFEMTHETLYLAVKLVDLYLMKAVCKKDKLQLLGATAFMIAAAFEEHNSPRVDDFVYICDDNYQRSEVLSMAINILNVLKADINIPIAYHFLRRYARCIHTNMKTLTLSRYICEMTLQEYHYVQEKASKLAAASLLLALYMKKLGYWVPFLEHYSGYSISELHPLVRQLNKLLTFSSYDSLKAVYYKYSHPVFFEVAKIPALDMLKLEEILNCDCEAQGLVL
Substitution,normalised enrichment score
PSAKRALGFLPQP [S6A],0.328
PAAKRSLGFLPQP [S2A],0.243
PSAKRSLGFLPAP [Q12A],0.554
PSAARSLGFLPQP [K4A],0.413
PSAKASLGFLPQP [R5A],0.225
PSAKRSLGALPQP [F9A],-0.18

# Sample 2
# Target: ABI1, truncated, D143A, DHFR fusion (Arabidopsis thaliana)
# Technique: DHFR PCA, deep sequencing
# Medium: yeast
# Notes: methotrexate growth selection, single substitutions
# Added: (+)-ABA 200 µM
# Relative to: wild-type fitted maximum
# Reading: higher = stronger binding
# Parent: PYL1, truncated, DHFR fusion (Arabidopsis thaliana); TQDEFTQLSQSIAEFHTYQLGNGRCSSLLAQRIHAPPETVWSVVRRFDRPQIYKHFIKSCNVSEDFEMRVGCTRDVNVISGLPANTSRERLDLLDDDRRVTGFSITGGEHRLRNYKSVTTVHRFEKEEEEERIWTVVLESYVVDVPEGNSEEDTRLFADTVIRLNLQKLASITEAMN
Substitution,relative binding score [%]
H122W,0.521
R132V,108
L156W,91.2
A35L,18.5
L82F,67
T120E,23
D75E,103
T86K,93.9
V118N,83.5
V40K,-7.31
L169H,-8.61
A35G,72.7
V161K,-10.3
Y141C,18.1
R99D,23.9
Y115P,-1.87
E130H,107

# Sample 3
# Target: FOSL1, bZIP domain (human)
# Technique: DHFR protein complementation
# Medium: yeast
# Notes: single substitutions, most at no-binding floor
# Relative to: wild-type JUN-FOS pair
# Reading: higher = stronger binding
# Parent: JUN, bZIP domain (human); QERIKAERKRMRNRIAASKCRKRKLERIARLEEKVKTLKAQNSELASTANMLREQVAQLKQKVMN; partner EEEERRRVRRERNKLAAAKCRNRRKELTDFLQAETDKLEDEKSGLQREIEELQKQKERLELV
Substitution,binding fitness [natural log]
E54A,-0.522
V56C,-0.852
N42D,-1.55
Q41D,-0.743
T48R,-0.244
T48E,-0.567
L45S,-1.37
K34W,-0.541
L31A,-0.701
A40L,-0.514
R53W,-1.35
R53C,-1.08
A46F,-0.68

# Sample 4
# Target: Ras GTPase-activating protein-binding protein 1, RRM domain (G3BP1, Homo sapiens, UniProt Q13283)
# Chain of UniProt Q13283 (whole entry, looked up): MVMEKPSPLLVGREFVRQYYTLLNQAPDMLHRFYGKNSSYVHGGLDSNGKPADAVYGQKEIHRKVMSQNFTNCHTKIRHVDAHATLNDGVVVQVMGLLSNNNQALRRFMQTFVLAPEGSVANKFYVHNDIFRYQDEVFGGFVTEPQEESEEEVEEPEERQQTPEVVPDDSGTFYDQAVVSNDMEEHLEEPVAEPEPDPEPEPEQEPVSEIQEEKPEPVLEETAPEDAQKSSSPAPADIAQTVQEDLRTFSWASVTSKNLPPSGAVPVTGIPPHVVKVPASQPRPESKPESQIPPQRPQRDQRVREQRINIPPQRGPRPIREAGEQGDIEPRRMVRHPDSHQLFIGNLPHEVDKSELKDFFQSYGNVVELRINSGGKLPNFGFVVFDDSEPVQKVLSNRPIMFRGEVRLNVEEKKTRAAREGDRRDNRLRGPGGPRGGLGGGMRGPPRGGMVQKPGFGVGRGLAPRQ
# Technique: RNA Bind-n-Seq
# Molecule type: RNA
# Medium: in vitro
# Tested at: 1 µM
# Notes: whole 134-nt RNA, ends assumed
# Added: 150 mM KCl
# Relative to: input library
# Reading: higher = stronger binding
# All sequences stand within: GGGAGUUCUACAGUCCGACGAUC … UGGAAUUCUCGGGUGUCAAGG
Oligonucleotide,log2 enrichment
CCUGUGCUACACAUCGUAUGUACCGAAUCGGGGAAAAAAAGGGGAAAGGGGUUUUUGGGGAAAGUAUUAUGUUACGCCGUUCGGAUCUGC,0.865
UAACUUUAGAGGAGGAUCUGAUGGAUAUGGCAGUGGACGUGGCUUUGGGGAUGGCUAUAAUGGGUAUGGAGGAGGACCUGGAGGUGGCAA,-0.585
ACCAUGCAGGUGGGCAUCUUUGGGACGUGGGGCAAGGGGGGGAUAGGGAGGGGGGUAACACUUUGGGAACAGGUGGUCCCAGGUCGUUUC,-0.521
AAGUCCUGUGCUACACAUCGUAUGUACCGAAUCAAACCCCCAAACCCAAAUUUAAAAAAGUAUUAUGUUACGCCGUUCGGAUCUGCACUU,-0.0269
CAAGUCCUGUGCUACACAUCGUAUGUACCGAAUCGGUUUUUGGAAAAAGGAAAGGAAAGUAUUAUGUUACGCCGUUCGGAUCUGCACUUC,-0.172
CCUCAAGUCCUGUGCUACACAUCGUAUGUACCGAAUCGGGGUGGGUGGUGGGAAAGUAUUAUGUUACGCCGUUCGGAUCUGCACUUCCAG,0.0766
AGUCCUGUGCUACACAUCGUAUGUACCGAAUCGGUUUUUGGUUUUUGGUUUUUUUGGAAAGUAUUAUGUUACGCCGUUCGGAUCUGCACU,-0.237
GUCCUGUGCUACACAUCGUAUGUACCGAAUCGGGCCCCCGGGCCCCCGGGGCCCCCGGGAAAGUAUUAUGUUACGCCGUUCGGAUCUGCA,-0.715
UAACUUUAGAGGAGGAUCUGAUGGAUAUGGCAGUGGACGUGGAUUUGGGGGUGGCUAUAAUGGGUAUGGAGGAGGACCUGGAGGUGGCAA,-0.418
UAACUUUAGAGGAGGAUCUGAUGGAUAUGGGAGUGGACGUGGAUUUGGGGAUGGCUAUAAUGGGUAUGGAGGAGGACCUGGAGGUGGCAA,-0.233
GUCCUGUGCUACACAUCGUAUGUACCGAAUCGGGCCCCCGGGGCCCCCGGGGCCCCCGGAAAGUAUUAUGUUACGCCGUUCGGAUCUGCA,-1.26
GUCCUGUGCUACACAUCGUAUGUACCGAAUCGGGGUUUUUGGUUUUUGGGUUUUUGGGGAAAGUAUUAUGUUACGCCGUUCGGAUCUGCA,-0.191
UCAAGUCCUGUGCUACACAUCGUAUGUACCGAAUCGGGGUUUGGUUUGGUUUGGAAAGUAUUAUGUUACGCCGUUCGGAUCUGCACUUCC,-0.226
UGGCCCUGGUGGCAUGCGGGGAGGAAGAGGUGGCCUCAUGGAUCGUGGUGGUCCCGGUGGAAUGUUCAGACGUGGCCGUGGUGGAGACAG,1.47

# Sample 5
# Target: Interferon regulatory factor 5, full length, phosphomimetic (IRF5, Homo sapiens, UniProt Q13568-2, residues 1-514, S451D/S453D/S456D/S462D)
# Technique: protein-binding microarray
# Molecule type: double-stranded DNA, one strand shown
# Medium: in vitro
# Tested at: 940 nM top
# Notes: 60-bp whole probe
# Added: salmon DNA 0.4 mg/ml
# Relative to: random background probes
# Reading: higher = stronger binding
# All sequences stand within: GCCTAGCAC … GTCTTGATTCGCTTGACGCTGCTG
Oligonucleotide,fitted relative affinity
GACGGTCTCGGTCGCGGGACGTGCTAG,3.32 z-score
CAGTTTTCCTCTGTCATTTTGTGCTAG,2.44 z-score
TTAGAACTGAGACTGGAATAGTGCTAG,-0.0961 z-score
TTAGGTATCCTTTTCCTTGAGTGCTAG,0.491 z-score
TTAGATTTAAGTTCCGATTAGTGCTAG,1.03 z-score
TTAGAACTGGGGCCTGGATTAGTGCTA,-0.46 z-score
TGTGTTATTAAATTTTCACGGGTGCTA,0.0428 z-score
ATAGGTTTCCTTATCCTTTAGTGCTAG,1.39 z-score
TCATGGATGTGTTTTAAACTGTGCTAG,-0.165 z-score
CTGTCATCATCGTTCCCAGCGTGCTAG,0.0623 z-score
TCATCTGTGCCTTTTTTACTGTGCTAG,0.517 z-score
AACGGACTGGACACTGGGGACGTGCTA,-0.537 z-score
ATGTTTTGAGTTTTCCTTCAGTGCTAG,0.838 z-score
GACGGTTTCGACTAACGGGACGTGCTA,8.78 z-score
GACGGTCTCGGACTGGGTACGTGCTAG,0.711 z-score
TTAGGACTGGACTTTCGATTAGTGCTA,2.16 z-score
TTAGGACTGCTACTGATTTAGTGCTAG,-0.391 z-score
TTCGGTTTCCTTCTCCTTTAGTGCTAG,2.38 z-score
ACCCTCATTCTACTATCGATGTGCTAG,1.77 z-score
TTAGATCTCAGTCTCGGTTAGTGCTAG,3.86 z-score
GATGGTTTCGGTTCCGGGACGTGCTAG,15.9 z-score
TTAGAACGGGGGACTGGATTAGTGCTA,1.26 z-score
TCATTTGTATTTTTGATACTGTGCTAG,0.487 z-score
GGCGGACTGGGTTTCGGGACGTGCTAG,2.97 z-score
TTAGAACTGGGGTATGGATTAGTGCTA,0.115 z-score
